# Experimental data pooled from the literature.
# Several values in a cell are separate wells, animals, samples, runs or records. ± gives the spread as reported.
Structure (SMILES),assay,test system,conditions,endpoint,value
COc1ccc2nc3cc(Cl)ccc3c(Nc3cc(CN4CCCC4)c(O)c(CN4CCCC4)c3)c2n1,,"mouse, blood","intraperitoneal, 57 mg/kg",ALT activity,0.33 U/L
C[C@@H]1NC(=O)[C@H](CCCCNC(=O)CO/N=C/C(=O)NCCCC[C@@H]2NC(=O)[C@@H](Cc3ccccc3)NC(=O)[C@H](CC(=O)O)NC(=O)CNC(=O)[C@H](CCCNC(=N)N)NC2=O)NC(=O)CNC(=O)[C@@H]2CCCN2C(=O)[C@H](CCCCNC(=O)CO/N=C/C(=O)NCCCC[C@@H]2NC(=O)[C@@H](Cc3ccccc3)NC(=O)[C@H](CC(=O)O)NC(=O)CNC(=O)[C@H](CCCNC(=N)N)NC2=O)NC(=O)[C@H](CCCCNC(=O)CN2CCCNCCNCCCNCC2)NC(=O)[C@H](CCCCNC(=O)CO/N=C/C(=O)NCCCC[C@@H]2NC(=O)[C@@H](Cc3ccccc3)NC(=O)[C@H](CC(=O)O)NC(=O)CNC(=O)[C@H](CCCNC(=N)N)NC2=O)NC(=O)CNC(=O)[C@@H]2CCCN2C(=O)[C@H](CCCCNC(=O)CO/N=C/C(=O)NCCCC[C@@H]2NC(=O)[C@@H](Cc3ccccc3)NC(=O)[C@H](CC(=O)O)NC(=O)CNC(=O)[C@H](CCCNC(=N)N)NC2=O)NC1=O [copper-64 labelled],,"normal mice, muscle","intravenous, 0.74 MBq, 24 h post-injection",tissue uptake,0.27 ± 0.02 %ID/g
CCN1[C@@H](C(=O)NC23CCC(C(=O)O)(CC2)CC3)[C@H](c2cccc(Cl)c2F)[C@]2(C(=O)Nc3cc(Cl)ccc32)C12CCCCC2,,advanced solid tumour patients,"oral, dose not given",treatment-related adverse events,100%
COc1ncccc1-c1cnn2ccc(N3CCN(C(=O)OC(C)C)CC3)nc12,,"mouse nerve ligation model, plasma","oral, 3 mg/kg, 30 min after last dose, repeat dosing day 5",drug concentration,910 nM
CC(C)CC(=O)OC[C@H]1O[C@@](C#N)(c2ccc3c(N)ncnn23)[C@H](O)[C@@H]1O,,human hepatocytes,15 min,remaining compound,0.158 ± 0.0683%
CCc1ccc(CC/C=C/c2ccc3c(c2)C(=O)CC3)cc1,,"Sprague-Dawley rat, female","oral, 30 mg/kg/day, 14 days",LDH serum activity,570 U/L
NC1(C(=O)N[C@@H](CCO)c2ccc(Cl)cc2)CCN(c2nc[nH]c3nccc2-3)CC1,,metastatic CRPC patients,"400 mg b.i.d., any grade, treatment-related, added: enzalutamide 160 mg daily",incidence of Nausea,42.9%
NCCCC[C@@H]1NC(=O)[C@@H](Cc2c[nH]c3ccccc23)NC(=O)[C@H](c2ccccc2)NC(=O)[C@@H]2C[C@@H](OC(=O)NCCN)CN2C(=O)[C@H](Cc2ccccc2)NC(=O)[C@H](Cc2ccc(OCc3ccccc3)cc2)NC1=O,,"healthy volunteers, female","1950 µg twice daily, 8.0 h, post hoc",placebo-corrected QTcF change,0.1 ms
COc1cccc(Oc2ccccc2NC(=O)CNC(=O)c2cccc3ccccc23)c1,,"esterase-deficient SCID mice, male, blood","oral, 15 mg/kg/day, 14 days, toxicity study",hematocrit,41.5% and 44.9% and 41%
CO[C@H]1C[C@@H]2CC[C@@H](C)[C@@](O)(O2)C(=O)C(=O)N2CCCC[C@H]2C(=O)O[C@H]([C@H](C)C[C@@H]2CC[C@@H](OC(=O)NCCOCCOCCOCCOCCOCCOCCOCCOCCC(=O)N3CCc4cc(Cn5nc(-c6ccc7oc(N)nc7c6)c6c(N)ncnc65)ccc4C3)[C@H](OC)C2)C[C@@H](O)[C@H](C)/C=C(\C)[C@@H](O)[C@@H](OC)C(=O)[C@H](C)C[C@H](C)/C=C/C=C/C=C/1C,"phase 1 dose escalation, item: mucositis",advanced solid tumour patients,"intravenous, 8 mg weekly, any grade",TRAE incidence,43.8%
Cc1cccc(Cn2nc(C3CC3)c3c(NC(=O)c4cnc5cc(OCCN6CCN(C)CC6)ccn45)cccc32)n1,item: Vomiting,human pancreatic ductal adenocarcinoma,"oral, dose not given, all-causality",adverse events incidence,33.3%
CC(=O)c1c(C)c2cnc(Nc3ccc(C4CCN(CCS(C)(=O)=O)CC4)cn3)nc2n(C2CCCC2)c1=O,,"human, dose-escalation trial, plasma","oral, 100 mg twice daily, day 1, single dose",AUC(0-t),2470 ng·h/mL
O=C(c1ccc(F)c(F)c1Nc1ccc(I)cc1F)N1CC(O)([C@@H]2CCCCN2)C1,,patients aged sample A to sample B years,"oral, dose not given",treatment-related adverse events,86%
